Literature values as cited in several papers.
Compare with care: the assays were run in different laboratories. Values joined by “and” are separate records of one study, mostly repeats; a detail may differ. ± marks the error that the study gave. ≈ marks a conversion by molar mass, not a printed value.
ACHE: Acetylcholinesterase (ACHE, Homo sapiens, UniProt P22303)
Chain of UniProt P22303 (whole entry, looked up): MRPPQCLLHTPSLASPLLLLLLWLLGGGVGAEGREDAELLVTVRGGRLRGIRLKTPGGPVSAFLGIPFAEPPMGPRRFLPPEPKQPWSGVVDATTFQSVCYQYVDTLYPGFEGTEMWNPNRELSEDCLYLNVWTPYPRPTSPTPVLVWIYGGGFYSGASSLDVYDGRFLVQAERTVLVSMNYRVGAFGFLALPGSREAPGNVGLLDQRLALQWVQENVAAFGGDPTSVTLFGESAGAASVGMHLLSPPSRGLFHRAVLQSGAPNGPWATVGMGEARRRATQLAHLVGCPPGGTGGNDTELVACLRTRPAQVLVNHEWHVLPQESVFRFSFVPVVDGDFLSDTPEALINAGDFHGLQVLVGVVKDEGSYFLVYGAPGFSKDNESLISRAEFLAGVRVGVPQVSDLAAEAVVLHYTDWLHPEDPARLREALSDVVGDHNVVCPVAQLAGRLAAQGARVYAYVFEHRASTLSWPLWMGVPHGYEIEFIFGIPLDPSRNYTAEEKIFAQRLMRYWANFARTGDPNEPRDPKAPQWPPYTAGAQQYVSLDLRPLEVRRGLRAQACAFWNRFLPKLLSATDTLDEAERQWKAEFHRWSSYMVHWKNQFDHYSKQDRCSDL
pyrG: pyrG (Escherichia coli, UniProt P0A7E5)
Chain of UniProt P0A7E5 (whole entry, looked up): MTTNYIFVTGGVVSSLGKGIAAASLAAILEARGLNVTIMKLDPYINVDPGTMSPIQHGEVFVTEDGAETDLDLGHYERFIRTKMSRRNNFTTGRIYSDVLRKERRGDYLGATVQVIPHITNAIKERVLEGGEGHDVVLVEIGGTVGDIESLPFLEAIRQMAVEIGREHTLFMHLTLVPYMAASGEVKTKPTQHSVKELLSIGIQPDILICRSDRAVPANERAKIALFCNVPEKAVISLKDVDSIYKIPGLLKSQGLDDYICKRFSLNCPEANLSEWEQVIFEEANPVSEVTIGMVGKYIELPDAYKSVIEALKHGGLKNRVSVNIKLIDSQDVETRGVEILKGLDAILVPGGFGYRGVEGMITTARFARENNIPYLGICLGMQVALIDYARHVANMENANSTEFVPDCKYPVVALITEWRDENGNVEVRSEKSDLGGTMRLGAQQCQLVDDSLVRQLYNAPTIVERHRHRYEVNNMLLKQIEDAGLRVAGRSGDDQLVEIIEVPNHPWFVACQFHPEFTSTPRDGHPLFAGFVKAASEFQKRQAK
BRD4 BD1: Bromodomain-containing protein 4, BD1 (BRD4, Homo sapiens, UniProt O60885)
HTR2C: 5-hydroxytryptamine receptor 2C (HTR2C, Homo sapiens, UniProt P28335)
Chain of UniProt P28335 (whole entry, looked up): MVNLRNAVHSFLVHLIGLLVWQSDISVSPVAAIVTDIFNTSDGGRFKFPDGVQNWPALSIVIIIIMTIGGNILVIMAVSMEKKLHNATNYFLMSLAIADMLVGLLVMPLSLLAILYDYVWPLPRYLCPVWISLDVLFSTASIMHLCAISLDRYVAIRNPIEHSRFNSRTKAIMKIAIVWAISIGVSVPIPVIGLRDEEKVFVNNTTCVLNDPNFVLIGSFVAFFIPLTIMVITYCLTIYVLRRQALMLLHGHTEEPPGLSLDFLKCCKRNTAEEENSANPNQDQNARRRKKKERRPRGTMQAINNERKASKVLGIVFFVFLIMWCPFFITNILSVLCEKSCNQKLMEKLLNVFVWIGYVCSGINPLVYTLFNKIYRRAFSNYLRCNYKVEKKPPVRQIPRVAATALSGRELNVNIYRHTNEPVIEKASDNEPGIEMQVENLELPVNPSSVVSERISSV
lasR: Transcriptional activator protein LasR (lasR, Pseudomonas aeruginosa, UniProt P25084)
Chain of UniProt P25084 (whole entry, looked up): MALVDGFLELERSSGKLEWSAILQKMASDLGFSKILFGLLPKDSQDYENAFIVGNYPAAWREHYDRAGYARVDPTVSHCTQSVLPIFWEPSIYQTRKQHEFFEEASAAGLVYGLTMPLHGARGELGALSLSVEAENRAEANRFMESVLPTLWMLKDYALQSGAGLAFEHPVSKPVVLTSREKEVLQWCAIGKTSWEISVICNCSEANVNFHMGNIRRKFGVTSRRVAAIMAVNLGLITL
Chain of UniProt P31941 (whole entry, looked up): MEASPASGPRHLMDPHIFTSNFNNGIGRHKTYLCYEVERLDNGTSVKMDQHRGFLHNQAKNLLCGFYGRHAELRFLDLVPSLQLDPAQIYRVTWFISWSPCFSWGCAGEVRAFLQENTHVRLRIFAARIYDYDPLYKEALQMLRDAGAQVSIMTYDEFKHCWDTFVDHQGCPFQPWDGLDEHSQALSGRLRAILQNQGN
Chain of UniProt Q9H2X3 (whole entry, looked up): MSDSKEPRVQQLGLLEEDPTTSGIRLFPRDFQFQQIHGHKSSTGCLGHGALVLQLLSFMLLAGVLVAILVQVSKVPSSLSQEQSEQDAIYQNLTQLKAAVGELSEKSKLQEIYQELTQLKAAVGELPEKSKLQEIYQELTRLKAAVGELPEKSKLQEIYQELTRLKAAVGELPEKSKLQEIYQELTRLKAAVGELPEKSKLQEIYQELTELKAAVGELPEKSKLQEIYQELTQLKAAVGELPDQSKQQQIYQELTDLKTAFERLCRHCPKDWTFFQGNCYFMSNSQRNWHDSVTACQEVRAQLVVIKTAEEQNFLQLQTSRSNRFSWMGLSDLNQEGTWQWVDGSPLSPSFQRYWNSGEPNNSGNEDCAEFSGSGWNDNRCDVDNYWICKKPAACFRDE
Chain of UniProt P06276 (whole entry, looked up): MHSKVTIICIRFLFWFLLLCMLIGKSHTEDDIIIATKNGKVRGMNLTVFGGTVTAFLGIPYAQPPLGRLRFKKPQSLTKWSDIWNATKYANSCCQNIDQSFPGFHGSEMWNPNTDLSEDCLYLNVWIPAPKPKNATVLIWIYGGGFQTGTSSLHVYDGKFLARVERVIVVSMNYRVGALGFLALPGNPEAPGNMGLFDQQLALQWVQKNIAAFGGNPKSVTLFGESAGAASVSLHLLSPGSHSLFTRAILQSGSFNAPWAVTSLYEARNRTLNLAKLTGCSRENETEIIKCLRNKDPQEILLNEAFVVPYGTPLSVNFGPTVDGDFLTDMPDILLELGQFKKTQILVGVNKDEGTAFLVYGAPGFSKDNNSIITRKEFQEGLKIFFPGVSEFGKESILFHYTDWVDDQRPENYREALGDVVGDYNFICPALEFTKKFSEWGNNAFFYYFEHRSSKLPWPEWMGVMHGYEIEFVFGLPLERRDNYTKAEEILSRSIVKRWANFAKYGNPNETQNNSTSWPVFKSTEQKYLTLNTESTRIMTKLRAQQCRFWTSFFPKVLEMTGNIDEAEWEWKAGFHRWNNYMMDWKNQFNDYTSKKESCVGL

`O=C(/C=C/c1ccc(OCc2ccc([N+](=O)[O-])cc2)cc1)NCCc1c[nH]c2ccccc12` has an IC50 of 34.5 ± 1.71 µM (ACHE).
The IC50 of `CC(=O)OC1C(=O)C2(C)C(O)CC3OCC3(OC(C)=O)C2C(OC(=O)c2cccc(OC(F)(F)F)c2)C2(O)CC(OC(=O)C(O)C(C=C(C)C)NC(=O)OC(C)(C)C)C(C)=C1C2(C)C` (centres unmarked) is reported as 0.0018 µM (HCT-116; cytotoxicity).
`Nc1ccn(C2OC(COP(=O)(O)OP(=O)(O)OP(=O)(O)O)C(O)C2O)c(=O)n1` (centres unmarked) gave an IC50 of greater than 1000 µM (pyrG; enzyme activity, inhibitor; wild type, with: UTP 0.05 mM).
The IC50 of `Cc1noc(C)c1-c1ccc(=O)n(Cc2ccc(C3CO3)c(F)c2)c1` (centres unmarked) is reported as 0.16 µM (BRD4 BD1; biochemical; bromodomain 1).
With `Nc1ccn(C2OC(COP(=O)(O)OP(=O)(O)OP(=O)(O)O)C(O)C2(F)F)c(=O)n1` (centres unmarked) the IC50 was 1.2 µM and ~1.2 µM (pyrG; enzyme activity, inhibitor; wild type, with: UTP 0.05 mM).
`CC(C)[C@H](NC(=O)[C@H](Cc1ccc(O)cc1)NC(=O)[C@H](CS)NC(=O)[C@@H](NC(=O)[C@H](CCCNC(=N)N)NC(=O)[C@H](Cc1ccccc1)NC(=O)[C@H](CS)NC(=O)[C@H](Cc1c[nH]c2ccccc12)NC(=O)[C@@H](N)CCCNC(=N)N)C(C)C)C(=O)NCC(=O)N[C@@H](Cc1ccccc1)C(=O)N[C@@H](CS)C(=O)N[C@@H](Cc1ccc(O)cc1)C(=O)N[C@@H](Cc1c[nH]c2ccccc12)C(=O)N[C@@H](CCCCN)C(=O)N[C@@H](CS)C(=O)N[C@@H](CCCNC(=N)N)C(=O)O` gave an MIC of greater than 128 µM (Staphylococcus aureus).
For `CCOC(=O)[C@@]12C[C@@H]1[C@@H](n1cnc3c(NC(C4CC4)C4CC4)nc(Cl)nc31)[C@H](O)[C@@H]2O`, the Ki was 0.03 µM (HTR2C; binding; with: [3H]mesulergine).
`Cc1nnc(CC2N=C(c3ccc(Cl)cc3)c3ccccc3-n3c(C)nnc32)o1` (centres unmarked) has an IC50 of 0.02 µM (BRD4 BD1; biochemical; bromodomain 1).
The MIC of `CC[C@H](C)[C@H](NC(=O)CNC(=O)[C@@H](NC(=O)CNC(=O)[C@@H](NC(=O)CNC(=O)[C@@H](NC(=O)[C@@H](NC(=O)[C@H](CCC(N)=O)NC(=O)[C@H](CCC(=O)O)NC(=O)[C@@H](NC(=O)[C@H](CC(C)C)NC(=O)[C@H](CCCNC(=N)N)NC(=O)[C@H](Cc1ccccc1)NC(=O)[C@@H](NC(=O)[C@H](CC(N)=O)NC(=O)[C@H](CCCCN)NC(=O)CNC(=O)[C@H](CCSC)NC(=O)[C@H](CCCCN)NC(=O)CNC(=O)[C@H](CC(C)C)NC(=O)[C@H](CCCCN)NC(=O)[C@H](CCCCN)NC(=O)CNC(=O)[C@H](Cc1ccccc1)NC(=O)[C@H](CCCCN)NC(=O)[C@H](CCCCN)NC(=O)[C@H](CC(C)C)NC(=O)[C@H](Cc1c[nH]c2ccccc12)NC(=O)CN)C(C)C)C(C)C)C(C)C)C(C)C)C(C)C)C(C)C)C(=O)N[C@@H](CC(N)=O)C(=O)N[C@@H](C)C(=O)N[C@@H](CC(C)C)C(=O)N[C@@H](CO)C(=O)O` is reported as 128 µM (≈ 481 µg/mL) (Staphylococcus aureus).
With `NCc1cn([C@@H]2[C@@H](OCCCl)O[C@H](CO)[C@@H](O)[C@@H]2O)nn1` the IC50 was 271 ± 21.1 µM (C-type lectin domain family 4 member M, extracellular domain (CLEC4M, Homo sapiens, UniProt Q9H2X3); binding to SARS-CoV-2 spike, inhibitor, surface plasmon resonance; with: spike surface 1913 RU).
With `O=C(CCc1ccc(Br)cc1)N[C@H]1CCOC1=O` the IC50 was 0.3 µM (lasR; reporter gene, antagonist, lasI-lacZ reporter).
`Nc1ccn(C2OC(COP(=O)(O)OP(=O)(O)OP(=O)(O)O)C(O)C2F)c(=O)n1` (centres unmarked) has an IC50 of 43 µM (pyrG; enzyme activity, inhibitor; wild type, with: UTP 0.20 mM).
The IC50 of `CC(=O)OC12COC1CC(O)C1(C)C(=O)C(OC(=O)C3CC3)C3=C(C)C(OC(=O)C(O)C(C=C(C)C)NC(=O)OC(C)(C)C)CC(O)(C(OC(=O)c4cccc(OC(F)(F)F)c4)C21)C3(C)C` (centres unmarked) is reported as 0.00058 µM (LCC6-WT; cytotoxicity).
For `CCCCCC(=O)NC(C(=O)NCc1ccc(NC(=N)N)cc1)c1ccc(OCc2ccccc2)cc1` (centres unmarked), the IC50 was 25 µM (Genome polyprotein, NS2B-NS3 protease (dengue virus type 2, UniProt P29990); protease activity, inhibitor; pH 7.5, with: AMC substrate).
`CN(C)/C=C/C(=O)c1cc2ccc(Oc3cn(Cc4ccc(F)c(F)c4)nn3)cc2oc1=O` gave an IC50 of 21.7 µM (Cholinesterase (BCHE, Homo sapiens, UniProt P06276); inhibitor).
`Cc1noc(C)c1-c1cc(N)c2ncn(Cc3ccc(C4CO4)cc3)c2c1` (centres unmarked) has an IC50 of 0.05 µM (Bromodomain-containing protein 4, BD2 (BRD4, Homo sapiens, UniProt O60885); biochemical; bromodomain 2).
With `Cc1ccc(NC(=O)Cn2cc(COc3ccccc3C=O)nn2)cc1C` the IC50 was 0.458 µM (ACHE; inhibitor).
The IC50 of `NC(Cc1cc(O)c(O)cc1O)C(=O)O` (centres unmarked) is reported as 0.3 µM (DNA dC->dU-editing enzyme APOBEC-3A (Homo sapiens, UniProt P31941)).
With `OC[C@@]12C[C@@H]1[C@@H](n1cnc3c(N[C@H](C4CCC4)C4CC4)nc(Cl)nc31)[C@H](O)[C@@H]2O` the Ki was 0.298 µM (HTR2C; binding; with: [3H]mesulergine).
The IC50 of `CCCCCCCCCNC(=O)CC(=O)c1ccccc1` is reported as 10 µM (lasR; reporter gene, antagonist, rsaL-yfp reporter; PAO-MW1).

A few entries again:
The MIC of `CC[C@H](C)[C@H](NC(=O)CNC(=O)[C@@H](NC(=O)CNC(=O)[C@@H](NC(=O)CNC(=O)[C@@H](NC(=O)[C@@H](NC(=O)[C@H](CCC(N)=O)NC(=O)[C@H](CCC(=O)O)NC(=O)[C@@H](NC(=O)[C@H](CC(C)C)NC(=O)[C@H](CCCNC(=N)N)NC(=O)[C@H](Cc1ccccc1)NC(=O)[C@@H](NC(=O)[C@H](CC(N)=O)NC(=O)[C@H](CCCCN)NC(=O)CNC(=O)[C@H](CCSC)NC(=O)[C@H](CCCCN)NC(=O)CNC(=O)[C@H](CC(C)C)NC(=O)[C@H](CCCCN)NC(=O)[C@H](CCCCN)NC(=O)CNC(=O)[C@H](Cc1ccccc1)NC(=O)[C@H](CCCCN)NC(=O)[C@H](CCCCN)NC(=O)[C@H](CC(C)C)NC(=O)[C@H](Cc1c[nH]c2ccccc12)NC(=O)CN)C(C)C)C(C)C)C(C)C)C(C)C)C(C)C)C(C)C)C(=O)N[C@@H](CC(N)=O)C(=O)N[C@@H](C)C(=O)N[C@@H](CC(C)C)C(=O)N[C@@H](CO)C(=O)O` is reported as 128 µM (≈ 481 µg/mL) (Staphylococcus aureus).
`CC(C)[C@H](NC(=O)[C@H](Cc1ccc(O)cc1)NC(=O)[C@H](CS)NC(=O)[C@@H](NC(=O)[C@H](CCCNC(=N)N)NC(=O)[C@H](Cc1ccccc1)NC(=O)[C@H](CS)NC(=O)[C@H](Cc1c[nH]c2ccccc12)NC(=O)[C@@H](N)CCCNC(=N)N)C(C)C)C(=O)NCC(=O)N[C@@H](Cc1ccccc1)C(=O)N[C@@H](CS)C(=O)N[C@@H](Cc1ccc(O)cc1)C(=O)N[C@@H](Cc1c[nH]c2ccccc12)C(=O)N[C@@H](CCCCN)C(=O)N[C@@H](CS)C(=O)N[C@@H](CCCNC(=N)N)C(=O)O` gave an MIC of greater than 128 µM (Staphylococcus aureus).
With `Cc1ccc(NC(=O)Cn2cc(COc3ccccc3C=O)nn2)cc1C` the IC50 was 0.458 µM (ACHE; inhibitor).
